{"data": "Measured values from different studies", "note": "Parts stem from different laboratories: compare values within a part only. Several values in a cell are separate wells, animals, samples, runs or records. Positions count from the first letter of the parent shown."}
{"data": "Series 1", "target": "tungstate, free oxyanion", "method": "microfluidic competitive inhibition", "matrix": "in vitro, cell-free expressed", "concentration": "not given", "setting": "derived from inhibition constants, unchanged parent 2230 nM", "reading": "lower = stronger binding", "parent": "PafA, mature enzyme, eGFP fusion (Elizabethkingia meningoseptica, UniProt Q9KJX5); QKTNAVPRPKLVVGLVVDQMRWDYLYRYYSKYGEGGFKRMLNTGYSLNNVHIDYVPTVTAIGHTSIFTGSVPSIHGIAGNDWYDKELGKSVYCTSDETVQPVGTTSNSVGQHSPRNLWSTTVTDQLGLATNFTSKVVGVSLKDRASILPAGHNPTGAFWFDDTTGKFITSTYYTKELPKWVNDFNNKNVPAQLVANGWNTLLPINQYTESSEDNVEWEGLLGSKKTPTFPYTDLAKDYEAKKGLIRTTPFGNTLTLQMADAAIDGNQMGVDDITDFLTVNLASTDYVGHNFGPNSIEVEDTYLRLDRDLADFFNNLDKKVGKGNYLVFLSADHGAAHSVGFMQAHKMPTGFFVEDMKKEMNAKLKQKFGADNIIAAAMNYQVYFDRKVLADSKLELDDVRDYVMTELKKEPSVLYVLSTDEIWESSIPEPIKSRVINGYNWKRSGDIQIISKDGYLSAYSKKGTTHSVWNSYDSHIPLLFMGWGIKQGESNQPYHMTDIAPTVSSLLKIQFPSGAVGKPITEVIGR"}
{"Change": "K452G", "oxyanion analog dissociation constant [nM]": 1390}
{"Change": "A145G", "oxyanion analog dissociation constant [nM]": 7890}
{"Change": "I263V", "oxyanion analog dissociation constant [nM]": 2130}
{"Change": "R246G", "oxyanion analog dissociation constant [nM]": 4400}
{"Change": "V516G", "oxyanion analog dissociation constant [nM]": 1950}
{"Change": "N266V", "oxyanion analog dissociation constant [nM]": 2290}
{"Change": "Q1V", "oxyanion analog dissociation constant [nM]": 1900}
{"Change": "Y45V", "oxyanion analog dissociation constant [nM]": 2340}
{"data": "Series 2", "target": "CCNE1, cyclin fold, Cln2 fusion (human)", "method": "yeast growth competition, sequencing", "matrix": "yeast", "setting": "strong parent motif", "reference": "not given", "reading": "higher = stronger binding", "parent": "viral docking peptide; KGVKRKLFAEDSS; partner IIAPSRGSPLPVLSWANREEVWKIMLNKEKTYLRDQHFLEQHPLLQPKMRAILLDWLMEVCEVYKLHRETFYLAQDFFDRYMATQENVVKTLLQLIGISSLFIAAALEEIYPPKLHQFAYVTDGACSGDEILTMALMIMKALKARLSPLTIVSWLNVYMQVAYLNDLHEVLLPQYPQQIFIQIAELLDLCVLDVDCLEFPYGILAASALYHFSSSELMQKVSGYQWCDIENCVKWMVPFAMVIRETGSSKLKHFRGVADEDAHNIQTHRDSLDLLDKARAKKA"}
{"Change": "F8C", "normalised enrichment score": 0.454}
{"Change": "E10V", "normalised enrichment score": 6.97}
{"Change": "S12W", "normalised enrichment score": 7.24}
{"Change": "G2M", "normalised enrichment score": 6.92}
{"Change": "G2N", "normalised enrichment score": 7.46}
{"Change": "D11P", "normalised enrichment score": 7.34}
{"data": "Series 3", "target": "UDP-N-acetylglucosamine--peptide N-acetylglucosaminyltransferase 110 kDa subunit (OGT, Homo sapiens, UniProt O15294)", "observed": "binding", "method": "phage display NGS", "form": "peptide", "concentration": "concentration not given", "reference": "input library", "UniProt O15294, sequence (whole entry, looked up)": "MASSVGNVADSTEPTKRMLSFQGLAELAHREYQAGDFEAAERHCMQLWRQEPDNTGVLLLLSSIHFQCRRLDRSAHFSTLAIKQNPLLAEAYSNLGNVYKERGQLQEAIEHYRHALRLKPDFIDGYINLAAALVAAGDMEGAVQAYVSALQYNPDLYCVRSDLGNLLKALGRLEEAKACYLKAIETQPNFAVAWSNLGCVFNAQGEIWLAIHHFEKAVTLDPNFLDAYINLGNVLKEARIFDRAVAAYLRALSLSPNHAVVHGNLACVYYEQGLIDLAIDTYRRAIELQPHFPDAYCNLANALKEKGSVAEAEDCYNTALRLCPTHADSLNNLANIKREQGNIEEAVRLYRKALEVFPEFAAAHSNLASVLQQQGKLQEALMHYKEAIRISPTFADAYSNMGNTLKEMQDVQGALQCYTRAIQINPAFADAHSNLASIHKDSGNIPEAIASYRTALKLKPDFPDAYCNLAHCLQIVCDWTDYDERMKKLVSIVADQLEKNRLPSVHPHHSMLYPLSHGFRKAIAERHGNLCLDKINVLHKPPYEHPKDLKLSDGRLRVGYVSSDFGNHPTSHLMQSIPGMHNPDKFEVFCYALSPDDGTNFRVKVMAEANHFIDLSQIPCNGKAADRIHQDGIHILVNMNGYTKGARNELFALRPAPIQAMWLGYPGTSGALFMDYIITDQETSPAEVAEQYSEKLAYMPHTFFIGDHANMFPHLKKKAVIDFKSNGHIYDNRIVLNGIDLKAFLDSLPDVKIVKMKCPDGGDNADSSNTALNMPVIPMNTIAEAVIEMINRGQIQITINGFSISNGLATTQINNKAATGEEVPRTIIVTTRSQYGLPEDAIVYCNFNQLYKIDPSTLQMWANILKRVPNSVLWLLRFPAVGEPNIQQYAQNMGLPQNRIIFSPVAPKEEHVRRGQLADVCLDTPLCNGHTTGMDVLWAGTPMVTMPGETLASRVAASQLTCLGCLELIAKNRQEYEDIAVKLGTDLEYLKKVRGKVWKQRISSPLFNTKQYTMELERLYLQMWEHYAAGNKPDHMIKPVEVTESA"}
{"Molecule": "QFLPSYQIQVDLPHY", "enrichment fold change": 1.93}
{"Molecule": "QVFPPEYWIEYNMV", "enrichment fold change": 2}
{"Molecule": "TITHNRTPWGSHHIH", "enrichment fold change": 10.6}
{"Molecule": "FPYLPQYQISPDYFS", "enrichment fold change": "2.84 and 4.69"}
{"Molecule": "EFFPPAYQLVVPYGD", "enrichment fold change": 9.39}
{"Molecule": "HTYYQHQHGQGDRYI", "enrichment fold change": 3.18}
{"Molecule": "WPHNWAYHGFDWHA", "enrichment fold change": 55.6}
{"Molecule": "HGPYHVPRHVPYKYG", "enrichment fold change": 9.97}
{"data": "Mixed results"}
{"SMILES": "NC(=O)N1c2ccccc2C=Cc2ccccc21", "cell line": "HEK-293T", "test": "pseudovirus infection, FDA-approved drug library counter-screen", "system": "VSV pseudotyped with VSV-G", "setting": "10 µM, 16 h", "how to read": "reference: vehicle-treated", "endpoint": "GFP-positive cells", "value": "87%"}
{"note": "Excerpt of the above (series 3):"}
{"Molecule": "QFLPSYQIQVDLPHY", "enrichment fold change": 1.93}
{"Molecule": "HTYYQHQHGQGDRYI", "enrichment fold change": 3.18}
